Results gathered from unrelated publications.
Each line is one published result; not all experiments were run side by side. “And” joins repeats or separate records; there may be more than shown. Numbers after ± are the reported error.
Htr1a: 5-hydroxytryptamine receptor 1A (Htr1a, Rattus norvegicus, UniProt P19327)
Sequence of UniProt P19327 (whole entry, looked up): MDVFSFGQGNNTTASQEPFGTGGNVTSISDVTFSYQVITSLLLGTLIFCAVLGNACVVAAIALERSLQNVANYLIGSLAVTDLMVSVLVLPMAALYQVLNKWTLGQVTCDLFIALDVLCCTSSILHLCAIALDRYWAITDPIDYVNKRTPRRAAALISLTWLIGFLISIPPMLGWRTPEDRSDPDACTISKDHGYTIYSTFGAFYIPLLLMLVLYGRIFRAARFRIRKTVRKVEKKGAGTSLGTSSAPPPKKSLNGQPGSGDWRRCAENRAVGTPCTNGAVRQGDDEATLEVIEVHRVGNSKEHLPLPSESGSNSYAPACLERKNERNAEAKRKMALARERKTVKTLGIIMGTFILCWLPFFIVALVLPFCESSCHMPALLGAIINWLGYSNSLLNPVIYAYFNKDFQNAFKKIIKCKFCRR
CHRM4: Muscarinic acetylcholine receptor M4 (CHRM4, Homo sapiens, UniProt P08173)
Sequence of UniProt P08173 (whole entry, looked up): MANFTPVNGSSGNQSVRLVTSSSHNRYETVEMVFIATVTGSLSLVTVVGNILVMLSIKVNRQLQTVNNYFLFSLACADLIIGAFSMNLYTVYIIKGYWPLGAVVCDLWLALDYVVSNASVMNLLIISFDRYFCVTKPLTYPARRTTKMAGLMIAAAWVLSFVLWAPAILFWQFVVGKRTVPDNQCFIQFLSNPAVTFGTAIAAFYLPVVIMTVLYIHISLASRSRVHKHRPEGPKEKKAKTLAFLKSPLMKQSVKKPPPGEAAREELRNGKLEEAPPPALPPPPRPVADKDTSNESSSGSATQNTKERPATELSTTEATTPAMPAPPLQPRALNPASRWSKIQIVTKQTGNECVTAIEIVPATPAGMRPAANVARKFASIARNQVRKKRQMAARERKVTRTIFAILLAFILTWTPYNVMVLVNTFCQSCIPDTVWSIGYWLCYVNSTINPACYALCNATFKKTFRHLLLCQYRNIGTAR
5-hydroxytryptamine receptor 2A: 5-hydroxytryptamine receptor 2A (Rattus norvegicus, UniProt P14842)
Sequence of UniProt P14842 (whole entry, looked up): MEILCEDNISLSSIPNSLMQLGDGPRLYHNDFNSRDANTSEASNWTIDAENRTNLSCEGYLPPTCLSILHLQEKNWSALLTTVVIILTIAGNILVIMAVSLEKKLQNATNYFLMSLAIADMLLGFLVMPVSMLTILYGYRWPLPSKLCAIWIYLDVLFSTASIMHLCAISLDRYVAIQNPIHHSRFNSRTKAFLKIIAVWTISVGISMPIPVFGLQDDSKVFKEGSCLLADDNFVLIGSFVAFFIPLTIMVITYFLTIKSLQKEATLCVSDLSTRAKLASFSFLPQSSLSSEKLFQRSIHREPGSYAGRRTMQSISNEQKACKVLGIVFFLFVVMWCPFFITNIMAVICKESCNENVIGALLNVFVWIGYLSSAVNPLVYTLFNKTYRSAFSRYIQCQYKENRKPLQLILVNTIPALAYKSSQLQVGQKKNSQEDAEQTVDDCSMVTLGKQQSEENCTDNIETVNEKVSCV
CASP1: Caspase-1 (CASP1, Homo sapiens, UniProt P29466)
Sequence of UniProt P29466 (whole entry, looked up): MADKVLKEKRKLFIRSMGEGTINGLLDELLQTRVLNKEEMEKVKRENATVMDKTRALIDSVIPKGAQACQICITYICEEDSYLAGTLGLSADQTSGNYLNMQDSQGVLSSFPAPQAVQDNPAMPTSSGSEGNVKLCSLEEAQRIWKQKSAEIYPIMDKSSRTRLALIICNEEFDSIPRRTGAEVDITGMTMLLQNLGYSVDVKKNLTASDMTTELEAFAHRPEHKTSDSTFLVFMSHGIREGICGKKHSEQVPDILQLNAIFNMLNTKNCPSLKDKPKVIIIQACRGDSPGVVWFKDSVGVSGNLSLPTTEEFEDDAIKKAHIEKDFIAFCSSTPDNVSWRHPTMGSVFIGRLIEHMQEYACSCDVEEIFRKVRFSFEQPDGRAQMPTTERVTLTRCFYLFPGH
Beta-lactamase CTX-M-14: Beta-lactamase CTX-M-14 (Escherichia coli, UniProt Q9L5C7)
TACR1: Substance-P receptor (TACR1, Homo sapiens, UniProt P25103)
Sequence of UniProt P25103 (whole entry, looked up): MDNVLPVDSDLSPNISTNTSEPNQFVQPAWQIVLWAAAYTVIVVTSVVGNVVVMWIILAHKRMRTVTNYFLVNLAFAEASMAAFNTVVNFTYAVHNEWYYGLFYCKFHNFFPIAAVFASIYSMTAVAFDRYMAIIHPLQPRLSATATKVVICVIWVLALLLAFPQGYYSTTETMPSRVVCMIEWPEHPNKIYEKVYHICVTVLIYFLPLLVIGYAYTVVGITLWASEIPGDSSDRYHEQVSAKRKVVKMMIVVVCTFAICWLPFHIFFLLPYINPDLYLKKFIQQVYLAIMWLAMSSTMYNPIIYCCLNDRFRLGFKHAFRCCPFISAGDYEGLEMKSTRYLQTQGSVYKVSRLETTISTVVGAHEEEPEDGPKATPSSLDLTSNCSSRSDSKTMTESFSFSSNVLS
FUT9: 4-galactosyl-N-acetylglucosaminide 3-alpha-L-fucosyltransferase 9 (FUT9, Homo sapiens, UniProt Q9Y231)
Sequence of UniProt Q9Y231 (whole entry, looked up): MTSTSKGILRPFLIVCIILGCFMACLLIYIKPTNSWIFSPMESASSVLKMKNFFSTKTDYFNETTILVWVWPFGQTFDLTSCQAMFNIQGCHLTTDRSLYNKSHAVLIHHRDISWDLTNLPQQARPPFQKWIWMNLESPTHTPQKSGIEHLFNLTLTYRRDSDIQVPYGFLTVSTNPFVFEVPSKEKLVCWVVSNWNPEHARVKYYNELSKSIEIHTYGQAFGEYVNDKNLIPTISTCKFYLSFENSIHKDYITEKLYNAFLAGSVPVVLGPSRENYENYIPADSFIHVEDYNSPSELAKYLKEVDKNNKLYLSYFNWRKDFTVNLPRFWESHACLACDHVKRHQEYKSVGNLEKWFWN
Sequence of UniProt Q9NR56 (whole entry, looked up): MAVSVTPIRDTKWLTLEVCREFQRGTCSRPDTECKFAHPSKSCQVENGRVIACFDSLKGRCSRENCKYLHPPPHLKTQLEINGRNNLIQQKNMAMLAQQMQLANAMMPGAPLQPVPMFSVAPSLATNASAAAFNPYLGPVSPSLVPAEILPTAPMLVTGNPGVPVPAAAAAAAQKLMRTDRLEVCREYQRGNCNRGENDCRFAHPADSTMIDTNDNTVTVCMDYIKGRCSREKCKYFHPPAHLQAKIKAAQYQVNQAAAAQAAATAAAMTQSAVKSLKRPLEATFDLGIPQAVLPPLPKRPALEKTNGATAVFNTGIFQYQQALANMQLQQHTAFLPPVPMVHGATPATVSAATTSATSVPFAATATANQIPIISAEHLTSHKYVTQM
Sequence of UniProt P16296 (whole entry, looked up): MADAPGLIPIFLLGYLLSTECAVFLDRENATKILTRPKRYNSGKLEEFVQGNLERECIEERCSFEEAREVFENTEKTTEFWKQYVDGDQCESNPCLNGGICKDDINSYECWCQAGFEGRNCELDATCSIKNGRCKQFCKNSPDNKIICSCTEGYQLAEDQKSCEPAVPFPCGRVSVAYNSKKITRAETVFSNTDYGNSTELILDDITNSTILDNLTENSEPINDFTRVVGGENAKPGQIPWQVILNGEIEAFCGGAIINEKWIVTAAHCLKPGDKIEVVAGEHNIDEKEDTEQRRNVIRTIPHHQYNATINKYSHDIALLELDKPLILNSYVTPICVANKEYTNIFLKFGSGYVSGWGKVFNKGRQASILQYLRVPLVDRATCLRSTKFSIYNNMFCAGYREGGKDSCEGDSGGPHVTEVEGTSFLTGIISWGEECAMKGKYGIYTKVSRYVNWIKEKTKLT
Sequence of UniProt P51993 (whole entry, looked up): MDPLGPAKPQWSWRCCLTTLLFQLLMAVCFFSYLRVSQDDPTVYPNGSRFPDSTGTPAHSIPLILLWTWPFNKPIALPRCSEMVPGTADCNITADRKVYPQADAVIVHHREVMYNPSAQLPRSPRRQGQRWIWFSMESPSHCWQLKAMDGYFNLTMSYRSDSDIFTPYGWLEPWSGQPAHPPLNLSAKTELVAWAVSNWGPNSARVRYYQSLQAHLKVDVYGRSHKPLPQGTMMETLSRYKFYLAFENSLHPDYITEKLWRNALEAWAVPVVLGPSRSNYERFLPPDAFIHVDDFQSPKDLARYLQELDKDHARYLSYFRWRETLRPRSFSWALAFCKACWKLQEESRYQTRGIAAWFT
Sequence of UniProt P02919 (whole entry, looked up): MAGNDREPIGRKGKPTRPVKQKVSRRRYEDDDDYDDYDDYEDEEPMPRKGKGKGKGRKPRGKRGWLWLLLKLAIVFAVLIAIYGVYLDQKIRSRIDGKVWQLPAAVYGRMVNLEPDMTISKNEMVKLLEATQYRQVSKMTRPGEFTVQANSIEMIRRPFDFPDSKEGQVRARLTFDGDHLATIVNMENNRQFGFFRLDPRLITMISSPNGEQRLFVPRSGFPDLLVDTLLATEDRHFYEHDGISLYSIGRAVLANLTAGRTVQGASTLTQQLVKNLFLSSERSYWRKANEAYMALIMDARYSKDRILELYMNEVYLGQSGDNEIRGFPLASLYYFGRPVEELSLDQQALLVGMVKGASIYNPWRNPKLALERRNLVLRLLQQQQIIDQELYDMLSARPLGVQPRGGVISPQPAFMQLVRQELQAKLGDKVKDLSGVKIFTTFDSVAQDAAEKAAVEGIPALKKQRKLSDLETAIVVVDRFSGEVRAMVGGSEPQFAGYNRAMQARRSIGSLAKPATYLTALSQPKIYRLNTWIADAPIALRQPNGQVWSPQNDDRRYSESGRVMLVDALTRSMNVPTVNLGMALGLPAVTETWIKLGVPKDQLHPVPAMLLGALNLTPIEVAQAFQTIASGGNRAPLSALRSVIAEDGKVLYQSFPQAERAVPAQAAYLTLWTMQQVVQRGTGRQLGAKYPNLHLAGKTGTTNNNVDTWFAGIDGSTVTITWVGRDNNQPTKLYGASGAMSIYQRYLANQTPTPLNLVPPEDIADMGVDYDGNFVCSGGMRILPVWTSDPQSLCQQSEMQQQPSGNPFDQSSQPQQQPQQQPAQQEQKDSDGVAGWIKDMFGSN
Sequence of UniProt O43570 (whole entry, looked up): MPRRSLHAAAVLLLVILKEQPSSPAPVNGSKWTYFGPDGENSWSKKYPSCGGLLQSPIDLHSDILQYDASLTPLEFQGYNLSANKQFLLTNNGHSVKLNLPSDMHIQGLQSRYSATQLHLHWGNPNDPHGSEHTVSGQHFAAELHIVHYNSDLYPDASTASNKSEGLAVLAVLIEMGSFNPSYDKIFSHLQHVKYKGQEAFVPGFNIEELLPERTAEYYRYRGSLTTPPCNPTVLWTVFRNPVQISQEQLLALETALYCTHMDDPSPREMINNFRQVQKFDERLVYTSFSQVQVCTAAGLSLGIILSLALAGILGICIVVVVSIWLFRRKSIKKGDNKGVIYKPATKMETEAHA

`COc1cc(CN2CCOCC2)ccc1OCCCN1CCN(c2cccc3sccc23)CC1` gave a Ki of 128 nM (Htr1a; cell-free assay, radioligand).
`CC(=O)N[C@H]1[C@H](Oc2ccccc2-c2cccc(C(=O)O)c2)O[C@H](CO)[C@H](O)[C@@H]1O` gave a Ki of ~90 nM (Adhesin FmlH, lectin domain (Escherichia coli, UniProt Q1RBS0); inhibitor, competitive bio-layer interferometry; UPEC UTI89; together with: immobilized Ser-TF).
With `CNc1ccccc1C(=O)O[C@H]1[C@@H](O)[C@H](n2ccc(=O)[nH]c2=O)O[C@@H]1COP(=O)(O)OP(=O)(O)O` the Ki was 4700 ± 1200 nM (Adcy2/ADCY5, C1/C2 domains (Rattus norvegicus, UniProt P26769+P30803); adenylyl cyclase activity, inhibitor, purified enzyme; together with: 10 mM MnCl2, 100 µM forskolin, no Gsα-GTPγS).
With `CC1=N[C@@H]2[C@@H](O)[C@H](O)[C@@H](COS(=O)(=O)O)O[C@@H]2S1` the Ki was 69 ± 7 nM (protein SP_0475 (Streptococcus pneumoniae, UniProt A0A0H2UNN2); inhibitor).
For `O=c1[nH]c(O)nc2c([C@@H]3N[C@H](COP(=O)(O)O)[C@@H](O)[C@H]3O)c[nH]c12`, the Ki was > 100000 nM (Hypoxanthine-guanine-xanthine phosphoribosyltransferase (Plasmodium falciparum, UniProt P20035); enzyme activity, inhibitor; pH 7.4).
`CN1CCC=C(c2nsnc2OCCCN2CCN(CCCCC3CCN(CC(=O)N4c5ccccc5NC(=O)c5ccccc54)CC3)CC2)C1` gave a Ki of 2.57 nM (CHRM4; ligand displacement, radioligand).
`Fc1cc(OCCCN2CCN(c3cccc4sccc34)CC2)ccc1CN1CCOCC1` has a Ki of 12 nM (5-hydroxytryptamine receptor 2A; cell-free assay).
For `N=C(N)NCCCc1c[nH]cn1`, the Ki was 38 nM (HRH3 (Homo sapiens, UniProt Q9Y5N1); ligand displacement, radioligand; cell membranes).
For `Clc1cc(CN2CCCCC2)ccc1OCCCN1CCN(c2cccc3sccc23)CC1`, the Ki was 153 nM (5-hydroxytryptamine receptor 2A; cell-free assay).
`O=C1Nc2ccccc2N(C(=O)CN2CCC(CCCCN3CCC(N4CCC(n5c(=O)[nH]c6ccccc65)CC4)CC3)CC2)c2ccccc21` gave a Ki of 11.2 nM (CHRM4; ligand displacement, radioligand).
`CC[C@H](C)[C@H](NC(C)=O)C(=O)N[C@H](C(=O)N[C@H](C(=O)N[C@@H](CCCCN)C(=O)N[C@H](C=O)CC(=O)O)C(C)C)[C@@H](C)O` gave a Ki of 447 nM (CASP1; enzyme activity, inhibitor, fluorescence; pH 7).
`O=C(Nc1cccc(-c2nn[nH]n2)c1)c1cc(-c2ncccn2)cc(C(F)(F)F)c1` has a Ki of 15300 nM (Beta-lactamase CTX-M-14; enzyme activity, inhibitor, absorbance; pH 7).
The Ki of `OCC1OC(Oc2ccc(C=Cc3cc(O)cc(O)c3)cc2)C(O)C(O)C1O` (stereo not drawn) is reported as 5000 ± 100 nM (XDH (Bos taurus, UniProt P80457); superoxide generation, inhibitor; pH 10.0, 25 °C, together with: xanthine).
For `CCC[C@H](O)[C@H](NC[C@@H](O)[C@H](Cc1ccccc1)NC(=O)c1cccc(C(=O)N(C)[C@H](C)c2ccccc2)c1)C(=O)NCC(C)C`, the Ki was 0.031 ± 0.021 nM (Beta-secretase 2 (BACE2, Homo sapiens, UniProt Q9Y5Z0)).
With `Nc1nc2c(ncn2[C@@H]2O[C@H](COP(=O)(O)OP(=O)(O)O[C@H]3O[C@@H](CNC(=O)Cc4ccccc4)[C@@H](O)[C@@H](O)[C@@H]3F)[C@@H](O)[C@H]2O)c(=O)[nH]1` the Ki was 4300 nM (FUT6 (Homo sapiens, UniProt P51993); enzyme activity, inhibitor).
The Ki of `CC[C@H](C)[C@H](NC(C)=O)C(=O)N[C@H](C(=O)N[C@H](C(=O)N[C@@H](CN)C(=O)N[C@H](C=O)CC(=O)O)C(C)C)[C@@H](C)O` is reported as 1510 nM (CASP1; enzyme activity, inhibitor, fluorescence; pH 7).
With `Cc1cccc(-c2ccc([C@@H]3[C@@H](CO)N4CCCCN(S(=O)(=O)c5ccccc5C(F)(F)F)C[C@@H]34)cc2)c1C` the Ki was 4.3 nM (IDE (Homo sapiens, UniProt P14735)).
`CCCCCCCCCCN1C(=O)/C(=N\NC(=N)N)c2cc(C)ccc21` gave a Ki of 2400 nM (mrcB (Escherichia coli K-12, UniProt P02919); transglycosylation activity, inhibitor; together with: dansyl-lipid II).
With `COc1cccc(C(=O)CC(N)C(=O)O)c1` (stereo not drawn) the Ki was 10000 nM (Kynureninase (kynU, Pseudomonas fluorescens, UniProt P83788); inhibitor).
With `CN(C)CCNC(=O)c1cccc2c(NCCCCc3c(N)nc(N)nc3N)c3ccccc3nc12` the Ki was > 17000 nM (Muscleblind-like protein 1, with cTNT RNA (Homo sapiens, UniProt Q9NR56); MBNL1-RNA binding, gel mobility shift; no tRNA, together with: cTNT RNA, 15 nM MBNL1).
With `Cc1ccc(O)c2c3c(nn12)CCC(C)(NC(=O)c1ccc(-n2cnc4cc(C(=O)O)ccc42)cc1Cl)C3` (stereo not drawn) the Ki was 21 nM and 22 nM (Coagulation factor IX (Rattus norvegicus, UniProt P16296); enzyme activity, inhibitor).
For `CCCCCCOc1ccc(C(=O)OCC[N+]2(C)CC=CCC2)cc1` (stereo not drawn), the Ki was 437 nM (CHRM4; ligand displacement, radioligand; cell membranes).
For `CCC(=O)NC1CN(CCCCC2CCN(CC(=O)N3c4ccccc4NC(=O)c4ccccc43)CC2)CCN(CC(=O)N2CCC(N3CCC(n4c(=O)[nH]c5ccccc54)CC3)CC2)C1` (stereo not drawn), the Ki was 7.94 nM (CHRM4; ligand displacement, radioligand).
With `c1cc(N2CCN(CCCOc3ccc(CN4CCCCC4)cc3)CC2)c2ccsc2c1` the Ki was 206 nM (5-hydroxytryptamine receptor 2A; cell-free assay).
`C[C@H](CCC(=O)O)[C@H]1CC[C@H]2[C@@H]3[C@@H](OC(=O)c4cccnc4)C[C@H]4C[C@H](O)CC[C@]4(C)[C@H]3CC[C@]12C` has a Ki of 11700 nM (SLC10A1 (Homo sapiens, UniProt Q14973); transporter uptake, inhibitor, radiometric).
`CN(C(=O)CNC(=O)[C@@H]1CCCN1C(=O)[C@@H]1CCCN1C(=O)[C@H](CCCNC(=N)N)NC(=O)[C@@H](N)CCCCN)[C@@H](Cc1ccccc1)C(=O)N[C@@H](CO)C(=O)N1CCC[C@H]1C(=O)N[C@@H](Cc1ccccc1)C(=O)O` has a Ki of 2030 nM (BDKRB1 (Homo sapiens, UniProt P46663); ligand displacement, radioligand; pH 7.4, cell membranes).
`CN(C)c1ccc(-n2cc(COC(=O)[C@@]3(C)C=C(C(=O)OC(C)(C)C)C(=O)CC3)nn2)cc1` has a Ki of 13600 nM (MAPK8 (Homo sapiens, UniProt P45983); ligand displacement, FP).
For `Cc1ccccc1-c1cc(N2CCCCC2)ccc1N(C)C(=O)C(C)(C)c1cc(C(F)(F)F)cc(C(F)(F)F)c1`, the Ki was 35.5 nM (TACR1; binding).
`CNC1CCC(N(Cc2cccc(-c3ccncc3)c2)C(=O)c2sc3ccccc3c2Cl)CC1` (stereo not drawn) gave a Ki of 8.4 nM (Protein smoothened (Smo, Mus musculus, UniProt P56726); ligand displacement, radioligand; cell membranes).
`COCCOc1cc2ncnc(Nc3cccc(-c4cn(CC(=O)Nc5ccc(S(N)(=O)=O)cc5)nn4)c3)c2cc1OCCOC` has a Ki of 7 nM (CA12 (Homo sapiens, UniProt O43570); enzyme activity, inhibitor, stopped-flow).
`Cc1cc(CN2CCOCC2)ccc1OCCCN1CCN(c2cccc3sccc23)CC1` gave a Ki of 14.6 nM (Htr1a; cell-free assay, radioligand).
`Nc1nc2c(ncn2[C@@H]2O[C@H](COP(=O)(O)OP(=O)(O)O[C@H]3O[C@@H](CNC(=O)C(c4ccccc4)C4CCCCC4)[C@@H](O)[C@@H](O)[C@@H]3F)[C@@H](O)[C@H]2O)c(=O)[nH]1` (stereo partly drawn) gave a Ki of 5400 nM (FUT9; enzyme activity, inhibitor).
With `N=C(N)NCCC[C@H](NC(=O)[C@@H](N)Cc1ccccc1)C(=O)NCCOCCOCC(=O)NCC(=O)N1CCCCC1` the Ki was 264000 nM (FAP (Homo sapiens, UniProt Q12884); enzyme activity, inhibitor, fluorescence; pH 7.5).
`O=C(Nc1cccc(-c2nn[nH]n2)c1)c1cc(-c2ccncc2)cc(C(F)(F)F)c1` has a Ki of 18500 nM (Beta-lactamase CTX-M-14; enzyme activity, inhibitor, absorbance; pH 7).
The Ki of `C[C@@H]1O[C@H](OP(=O)(O)OP(=O)(O)OC[C@H]2O[C@@H](n3cnc4c(=O)[nH]c(N)nc43)[C@H](O)[C@@H]2O)[C@@H](F)[C@H](O)[C@@H]1O` is reported as 27800 nM (FUT9; enzyme activity, inhibitor).
For `Cc1ccccc1-c1cc(N2CCN(C)CC2)ccc1N(C)C(=O)C(C)(C)c1cc(C(F)(F)F)cc(C(F)(F)F)c1`, the Ki was 0.72 nM (TACR1; cell-free assay; pH 7.4).
The Ki of `O=C(Nc1cccc(-c2nn[nH]n2)c1)c1cc(-c2ncc[nH]2)cc(C(F)(F)F)c1` is reported as 16900 nM (Beta-lactamase CTX-M-14; enzyme activity, inhibitor, absorbance; pH 7).
`Cc1ccccc1-c1cc(N2CCN(CCCN3C(=O)C=CC3=O)CC2)ccc1N(C)C(=O)C(C)(C)c1cc(C(F)(F)F)cc(C(F)(F)F)c1` gave a Ki of 2.29 nM (TACR1; binding).
`COc1ccc2nc3cc(Cl)ccc3c(NCCCCc3c(N)nc(N)nc3N)c2c1` gave a Ki of 3400 ± 900 nM (Muscleblind-like protein 1, with (CCUG)6 RNA (Homo sapiens, UniProt Q9NR56); MBNL1-RNA binding, gel mobility shift; 100 nM tRNA, together with: (CCUG)6 RNA, 350 nM MBNL1).

Repeated from above:
`CN1CCC=C(c2nsnc2OCCCN2CCN(CCCCC3CCN(CC(=O)N4c5ccccc5NC(=O)c5ccccc54)CC3)CC2)C1` gave a Ki of 2.57 nM (CHRM4; ligand displacement, radioligand).
For `Cc1ccccc1-c1cc(N2CCN(C)CC2)ccc1N(C)C(=O)C(C)(C)c1cc(C(F)(F)F)cc(C(F)(F)F)c1`, the Ki was 0.72 nM (TACR1; cell-free assay; pH 7.4).
`COCCOc1cc2ncnc(Nc3cccc(-c4cn(CC(=O)Nc5ccc(S(N)(=O)=O)cc5)nn4)c3)c2cc1OCCOC` has a Ki of 7 nM (CA12 (Homo sapiens, UniProt O43570); enzyme activity, inhibitor, stopped-flow).
`Fc1cc(OCCCN2CCN(c3cccc4sccc34)CC2)ccc1CN1CCOCC1` has a Ki of 12 nM (5-hydroxytryptamine receptor 2A; cell-free assay).
`C[C@H](CCC(=O)O)[C@H]1CC[C@H]2[C@@H]3[C@@H](OC(=O)c4cccnc4)C[C@H]4C[C@H](O)CC[C@]4(C)[C@H]3CC[C@]12C` has a Ki of 11700 nM (SLC10A1 (Homo sapiens, UniProt Q14973); transporter uptake, inhibitor, radiometric).
